Results of several laboratories.
Parts stem from different laboratories: compare values within a part only.

Study 1
Target: Ras GTPase-activating protein-binding protein 1, RRM domain (G3BP1, Homo sapiens, UniProt Q13283)
Chain of UniProt Q13283 (whole entry, looked up): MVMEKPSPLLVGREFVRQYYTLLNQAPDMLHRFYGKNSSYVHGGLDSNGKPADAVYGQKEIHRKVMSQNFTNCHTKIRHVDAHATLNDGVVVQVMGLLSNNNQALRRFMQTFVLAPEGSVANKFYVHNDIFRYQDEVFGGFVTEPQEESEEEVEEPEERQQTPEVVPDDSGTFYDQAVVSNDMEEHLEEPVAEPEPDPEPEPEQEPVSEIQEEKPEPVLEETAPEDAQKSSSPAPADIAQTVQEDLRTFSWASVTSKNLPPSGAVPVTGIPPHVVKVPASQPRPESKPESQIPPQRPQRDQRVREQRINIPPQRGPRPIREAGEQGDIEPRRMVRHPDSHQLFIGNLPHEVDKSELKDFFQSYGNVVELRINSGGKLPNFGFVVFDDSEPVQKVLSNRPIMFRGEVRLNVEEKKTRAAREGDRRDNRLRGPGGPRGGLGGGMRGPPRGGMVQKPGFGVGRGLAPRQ
Method: RNA Bind-n-Seq
Form: RNA
Sample: in vitro
Concentration: 1 µM
Notes: whole 134-nt RNA, ends assumed
With: 150 mM KCl
Reference: input library
Direction: higher = stronger binding
All sequences stand within: GGGAGUUCUACAGUCCGACGAUC … UGGAAUUCUCGGGUGUCAAGG
Strand | log2 enrichment
UCUCUUAUGCUAUUGGAGUUUCUCAUCCAUUAUCUAUCUCCAUUUUCCAUUAUGGUACCUCUCAGAAGAGUGAGAGAGAGCUAUUAGAGA | -0.213
UUCUGGUCUGCUCACCAGAGGUUCUUCAAAUACUUAUGCAUAGCAUCCAAAGUUAAAAGGGUUGUGCAACUAGCUCGAGAGGAAAUCAAG | -0.287
CAAGUCCUGUGCUACACAUCGUAUGUACCGAAUCGGAAAAAGGUUUUUUUGGAGGAAAGUAUUAUGUUACGCCGUUCGGAUCUGCACUUC | -0.379
CUCAAGUCCUGUGCUACACAUCGUAUGUACCGAAUCGGUGGUUUUUGGAAAGGAAAGUAUUAUGUUACGCCGUUCGGAUCUGCACUUCCA | -0.211
UCAAGUCCUGUGCUACACAUCGUAUGUACCGAAUCGGAAAGGAAAGGAAAGGGGAAAGUAUUAUGUUACGCCGUUCGGAUCUGCACUUCC | -0.202

Study 2
Target: TAR DNA-binding protein 43, full length, His tag (TARDBP, Homo sapiens, UniProt Q13148, residues 1-414)
Method: RNA Bind-n-Seq
Form: RNA
Sample: in vitro
Concentration: 20 nM
Notes: 6-mer, flanks averaged, single round
With: 150 mM LiCl
Reference: input library
Direction: higher = stronger binding
Strand | 6-mer enrichment (R)
GGCAUA | 0.918
UCUCAG | 0.829
CAUACC | 0.867
CAGCGC | 0.94

Study 3
Target: Histone acetyltransferase KAT6A, winged helix 2, GST fusion (KAT6A, Homo sapiens, UniProt Q92794, residues 85-181)
Method: protein binding microarray
Form: double-stranded DNA, one strand shown
Sample: in vitro
Concentration: not given
Notes: 8-mer, flanks averaged, mean of 2 arrays, mostly near background
Reference: not given
Direction: higher = stronger binding
Residues (chain): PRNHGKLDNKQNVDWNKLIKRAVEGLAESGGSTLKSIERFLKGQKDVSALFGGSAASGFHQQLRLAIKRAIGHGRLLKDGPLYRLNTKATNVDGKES
Strand | E-score
CGAGCCAC | 0.0419
TACGAAAA | 0.0137
GAGAAACA | 0.138
AGAACTAT | 0.0104

Mixed results
Molecule | target | test | system | setting | scale | endpoint | result
PhoQ, residues 284 288 289 292 302 303 ASSHFY | PhoP, residues 12 14 15 18 19 NIMAP (Escherichia coli, UniProt P23836) | Sort-seq, item: YFP reporter | E. coli | PhoQ-PhoP variant library, with: 10 µM Mg2+ | reference: high Mg2+ state, higher = stronger signaling | fold induction | 0.727
